Measured values gathered from unrelated publications.
Numbered parts are unrelated; each lists some results of a single study. Positions count from the first letter of the parent shown.

Series 1 — technique: RNA Bind-n-Seq; molecule type: RNA; sample: in vitro; concentration: 365 nM; baseline: no-protein control; reading: higher = stronger binding
Target: RNA binding protein fox-1 homolog 2, RRM domain, GST-SBP tag (RBFOX2, Homo sapiens, UniProt O43251-10, residues 100-194)
Notes: natural RNA segment, single round, ends assumed
Target sequence (chain): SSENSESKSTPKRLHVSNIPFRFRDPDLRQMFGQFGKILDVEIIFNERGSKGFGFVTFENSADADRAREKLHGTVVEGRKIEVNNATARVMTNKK
Strand	RBNS enrichment (R)
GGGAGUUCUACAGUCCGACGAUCGCAGGGCCGCUCGAUGCCUUUGCUGUUUAGCUUCCUCCAGAGGAGGGGACUUGUAGGAAUCUGCCUUCCAGCCCAGACCCCCAGUGUAUUUUGUCCAAGUUCACAGUAGAUGGAAUUCUCGGGUGCCAA	0.385
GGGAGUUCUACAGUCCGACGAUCAUGUGCCAGGCCCAGUCUUCCCACCCCAGCUGCUCCACUGGCCACCGCUAGAGCCCCUCUCCCUACCUUCUGCCUGUUUUCUCCAAUAAAUGCGGAAGGAGUUAAACUUCUGGAAUUCUCGGGUGCCAA	0.741
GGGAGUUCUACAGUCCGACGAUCUCUGCCAAAAAUCAAGGUUUAAAAAGCUGAGGCUUGUAUUUGAUCAUGCUUUUCACCUAAAUAGCAAUUUAAAUAUUUGAUGAGCUCUGAACAAACCCUGUAUCAAGUAUUGGAAUUCUCGGGUGCCAA	0.608
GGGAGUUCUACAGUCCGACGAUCGGAAACUGGGGCAGCCAGUGCUUAUCUGCACACUCCAGAUGAGAAGGCAUACAGGAGGGGGCCCACUGAUCUUUGUCAGAUGGCCUGCAGGCACUCUGCAGAGGAUGGAAUGGAAUUCUCGGGUGCCAA	3.67
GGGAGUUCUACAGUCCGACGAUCGAGCGCCAAUGAGGUUCCCUGCAACCCCCGCCCUCCAGCCCACCGCCCAACCUUUUACAAAUGGCAUUUUCUUAAUUGAAAAUCCGGGAAGCAGGUGUGAUUACUUUUUUUGGAAUUCUCGGGUGCCAA	0.354
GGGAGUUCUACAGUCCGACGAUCCUGUGCCUUGAUCAUUUCGGUGACUGAAGAGUCUGACCCCAGAGGCCUUGGGGACCCUUUCUUCUCUCUGAUGAUGGCAGUCUGGAAUAAAGCACUGUCACCUUUGACUCUGGAAUUCUCGGGUGCCAA	0.333
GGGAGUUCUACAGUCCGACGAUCUCAGGCAUCUGGGAGGGCCCUGCCCCCAUGGGCUUUACCCUUCCCUGCGGGCUCUCUCCCCGACACAUUUGUUAAAAUCAAACCUGAAUAAAACUACAAGUUUAAUAUGAUGGAAUUCUCGGGUGCCAA	0.472
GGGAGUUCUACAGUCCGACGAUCCCCCAGCCACAGGUAUGUGGAAUACGGUGAGGAAAAAAAAAAUUAAAAAAAAAAUGCAAGCUGUCAGGAUGCUUAAGCUCUUUUCAGACAUCUGCAGUUUCAUCCCUACCUGGAAUUCUCGGGUGCCAA	0.451

Series 2 — target: CCNA1, cyclin fold, Cln2 fusion (human); technique: yeast growth competition, sequencing; sample: yeast; notes: weak parent motif; baseline: not given; reading: higher = stronger binding
Starting sequence: INSM1 docking peptide (human); PKAIRKLHFEDEV; partner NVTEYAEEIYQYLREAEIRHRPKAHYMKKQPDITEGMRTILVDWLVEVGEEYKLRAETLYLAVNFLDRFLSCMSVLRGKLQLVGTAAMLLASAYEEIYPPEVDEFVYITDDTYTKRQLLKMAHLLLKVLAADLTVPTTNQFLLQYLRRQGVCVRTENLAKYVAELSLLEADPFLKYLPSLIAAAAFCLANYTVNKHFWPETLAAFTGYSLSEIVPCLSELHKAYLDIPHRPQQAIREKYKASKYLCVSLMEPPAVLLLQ
Substitution	normalised enrichment score
F9D	-0.0499
K2V	0.23
E10H	0.177
K2Y	0.156
K6V	0.0869
E12M	0.806
E10C	0.408
R5K	0.585
F9I	-0.447

Series 3 — technique: protein binding microarray; molecule type: double-stranded DNA, one strand shown; sample: in vitro; concentration: not given; baseline: not given; reading: higher = stronger binding
Target: Histone acetyltransferase KAT6A, winged helix 2, GST fusion (KAT6A, Homo sapiens, UniProt Q92794, residues 85-181)
Notes: 8-mer, flanks averaged, mean of 2 arrays, mostly near background
Target sequence (chain): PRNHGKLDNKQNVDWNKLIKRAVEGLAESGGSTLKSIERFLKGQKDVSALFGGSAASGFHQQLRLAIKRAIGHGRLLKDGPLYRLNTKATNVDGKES
Strand	E-score
CTATGAAG	-0.0377
TCCCGTCA	-0.0618
AAATAGGC	-0.0117
GGGAAACC	0.18
AACATCGG	0.0505
AGCGCAGC	0.202
AGACACCT	-0.16

Further values, each from its own experiment
Molecule	target	test	test system	conditions	scale	endpoint	result
PhoQ, residues 284 288 289 292 302 303 ASSHFY	PhoP, residues 12 14 15 18 19 VQALL (Escherichia coli, UniProt P23836)	Sort-seq, measured: YFP reporter	E. coli	PhoQ-PhoP variant library, added: 10 µM Mg2+	baseline: high Mg2+ state, higher = stronger signaling	fold induction	22.8

A few entries again (series 2):
Substitution	normalised enrichment score
E10C	0.408
K6V	0.0869
K2Y	0.156
E10H	0.177
